Results pooled from the literature.
Cell line: UO-31

For `CC(=O)OC[C@H]1O[C@@H](Sc2sc(C(=O)c3ccc(C)cc3)c(N)c2-c2nc3ccccc3s2)[C@H](OC(C)=O)[C@@H](OC(C)=O)[C@H]1OC(C)=O`, the growth was 57.6% (SRB; 10 µM, 48 h; reference: untreated).
`COc1cc(CNC(=O)C[C@H](C)CCC=C(C)C)ccc1OCc1cn(-c2ccc(C#N)cc2)nn1` has a growth percent of 50.9% (SRB; 10 µM, 48 h).
For `CC(=C(c1ccc(O)cc1)c1ccc(Cl)cc1)c1ccc(Cl)cc1`, the GI50 was 650 nM (cell growth or viability).
For `COc1cc(CNC(=O)C[C@H](C)CCC=C(C)C)ccc1OCc1cn(-c2ccc(Br)cc2)nn1`, the growth percent was 62.9% (SRB; 10 µM, 48 h).
For `CC/C=C\C/C=C\C/C=C\C/C=C\C/C=C\C/C=C\CCC(=O)Nc1ccn(C2OC(CO)C(O)C2(F)F)c(=O)n1` (centres unmarked), the TGI was 12 µM (NCI60 screen).
`CC(Cc1ccc(Cl)cc1)=C(c1ccc(Cl)cc1)c1ccc(OCCN(C)C)cc1` gave a GI50 of 4270 nM (cell growth or viability).
`COc1cc(CNC(=O)C[C@H](C)CCC=C(C)C)ccc1OCc1cn(-c2ccc(Cl)cc2Cl)nn1` has a growth percent of 60.5% (SRB; 10 µM, 48 h).
With `O=C([O][Ti+2][O]C(=O)c1ccc([P+]([Au-][Cl])(c2ccccc2)c2ccccc2)cc1)c1ccc([P+]([Au-][Cl])(c2ccccc2)c2ccccc2)cc1.c1cc[cH-]c1.c1cc[cH-]c1` the IC50 was 6.8 µM (cell viability, XTT; 24 h).
For `COc1ccc(C2=Nn3c(NN=C4C(=O)N(Cc5ccccc5)c5ccc(Cl)cc54)nnc3SC2)cc1`, the inhibition was 23% (cell growth or viability, SRB; 10 µM).
The growth of `CC(=O)OC[C@H]1O[C@@H](Sc2sc(C(=O)c3ccc(Br)cc3)c(N)c2-c2nc3ccccc3s2)[C@H](OC(C)=O)[C@@H](OC(C)=O)[C@@H]1OC(C)=O` is reported as 73.6% (SRB; 10 µM, 48 h; reference: untreated).
For `O=C(O)c1ccc([P+]([Au-][Cl])(c2ccccc2)c2ccccc2)cc1`, the IC50 was 38.3 µM (cell viability, XTT; 24 h).

A few entries again:
The growth of `CC(=O)OC[C@H]1O[C@@H](Sc2sc(C(=O)c3ccc(Br)cc3)c(N)c2-c2nc3ccccc3s2)[C@H](OC(C)=O)[C@@H](OC(C)=O)[C@@H]1OC(C)=O` is reported as 73.6% (SRB; 10 µM, 48 h; reference: untreated).
